Assay results pooled from the literature.
Parts stem from different laboratories: compare values within a part only.

Set 1 — method: protein binding microarray; molecule type: double-stranded DNA, one strand shown; medium: in vitro; tested at: not given; baseline: not given; direction: higher = stronger binding
Target: Histone acetyltransferase KAT6A, both winged helices, GST fusion (KAT6A, Homo sapiens, UniProt Q92794, residues 1-181)
Notes: 8-mer, flanks averaged, mean of 2 arrays, mostly near background
Construct (chain): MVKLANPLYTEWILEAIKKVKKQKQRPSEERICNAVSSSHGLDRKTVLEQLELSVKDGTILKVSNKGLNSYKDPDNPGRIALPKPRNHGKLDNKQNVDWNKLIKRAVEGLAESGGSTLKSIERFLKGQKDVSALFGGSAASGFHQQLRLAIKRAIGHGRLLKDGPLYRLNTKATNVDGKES
| Sequence | E-score |
| --- | --- |
| ATTCTGGG | -0.196 |
| ATAACCAA | -0.161 |
| TGATCAAA | -0.0108 |

Set 2 — method: universal PBM; molecule type: double-stranded DNA, one strand shown; medium: in vitro; tested at: 600 nM; direction: higher = stronger binding
Target: Sal-like protein 4, full length isoform A (SALL4, Homo sapiens, UniProt Q9UJQ4, residues 1-1053)
UniProt Q9UJQ4, sequence (whole entry, looked up): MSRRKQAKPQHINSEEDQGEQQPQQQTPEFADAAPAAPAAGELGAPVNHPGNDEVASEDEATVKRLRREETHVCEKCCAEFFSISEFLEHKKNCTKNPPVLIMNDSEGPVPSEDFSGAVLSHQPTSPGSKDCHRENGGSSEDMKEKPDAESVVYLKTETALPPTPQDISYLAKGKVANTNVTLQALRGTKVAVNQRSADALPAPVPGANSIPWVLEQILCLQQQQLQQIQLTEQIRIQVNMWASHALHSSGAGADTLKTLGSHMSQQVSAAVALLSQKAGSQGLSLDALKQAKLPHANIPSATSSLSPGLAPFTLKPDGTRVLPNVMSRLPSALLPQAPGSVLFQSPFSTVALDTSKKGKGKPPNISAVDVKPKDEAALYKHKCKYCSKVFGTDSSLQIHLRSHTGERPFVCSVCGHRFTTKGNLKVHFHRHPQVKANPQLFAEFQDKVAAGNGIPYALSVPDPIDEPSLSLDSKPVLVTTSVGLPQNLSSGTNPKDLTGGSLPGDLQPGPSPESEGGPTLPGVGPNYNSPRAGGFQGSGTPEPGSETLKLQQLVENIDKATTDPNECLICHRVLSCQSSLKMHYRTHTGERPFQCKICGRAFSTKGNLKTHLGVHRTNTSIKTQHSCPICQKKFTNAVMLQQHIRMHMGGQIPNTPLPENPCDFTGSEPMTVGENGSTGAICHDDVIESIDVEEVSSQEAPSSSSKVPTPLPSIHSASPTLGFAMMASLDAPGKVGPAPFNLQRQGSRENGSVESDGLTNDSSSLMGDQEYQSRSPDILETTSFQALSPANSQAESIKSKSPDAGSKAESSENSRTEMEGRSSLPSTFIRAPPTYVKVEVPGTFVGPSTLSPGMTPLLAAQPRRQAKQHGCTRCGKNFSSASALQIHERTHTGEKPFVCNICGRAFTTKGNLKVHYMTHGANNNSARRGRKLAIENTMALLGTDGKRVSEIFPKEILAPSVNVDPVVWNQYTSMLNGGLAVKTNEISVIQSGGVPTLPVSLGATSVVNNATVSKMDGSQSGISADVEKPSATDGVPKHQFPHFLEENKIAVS
Notes: 8-mer, flanks averaged, mean of replicates
| Sequence | E-score |
| --- | --- |
| AGGCATAT | 0.242 |
| CAGCGAAG | -0.163 |
| AACACTGA | 0.152 |
| TCGCCCCA | -0.251 |

Set 3 — method: RNA Bind-n-Seq; molecule type: RNA; medium: in vitro; tested at: 200 nM; notes: whole 134-nt RNA, ends assumed; with: 150 mM KCl; baseline: input library; direction: higher = stronger binding
Target: Fragile X messenger ribonucleoprotein 1, C-terminal low-complexity region (Fmr1, Mus musculus, UniProt P35922)
| Sequence | log2 enrichment |
| --- | --- |
| GGGAGUUCUACAGUCCGACGAUCCACAGACAACACGCACCCACACAGACACAGAGGGAAGGGGUUGGGAUGGGGACAGGGUGCACAGCACGGCGGGGUAGGACCCCAGCCCCUUGGAAUUCUCGGGUGUCAAGG | 1.25 |
| GGGAGUUCUACAGUCCGACGAUCUGGGAGGUUGAUUUUGUUUAUUUUUUUAGCUCAUUUCCAGGGGUGGGAAUUUUUUUUUAAUAUGUGUCAUGAAUAAAGUUGUUUUUGAAAUGGAAUUCUCGGGUGUCAAGG | -0.0103 |
| GGGAGUUCUACAGUCCGACGAUCGUCCUGUGCUACACAUCGUAUGUACCGAAUCGGGAAAGGGAAAAAGGGUUUUUUUGGGAAAGUAUUAUGUUACGCCGUUCGGAUCUGCACUGGAAUUCUCGGGUGUCAAGG | -0.323 |

Further values, each from its own experiment
| Molecule | target | test | system | conditions | scale | quantity | value |
| --- | --- | --- | --- | --- | --- | --- | --- |
| PhoQ, residues 284 288 289 292 302 303 AANNSF | PhoP, residues 12 14 15 18 19 DLLYY (Escherichia coli, UniProt P23836) | Sort-seq, measured: YFP reporter | E. coli | PhoQ-PhoP variant library, with: 10 µM Mg2+ | baseline: high Mg2+ state, higher = stronger signaling | fold induction | 2.49 |

Excerpt of the above (set 1):
| Sequence | E-score |
| --- | --- |
| ATAACCAA | -0.161 |
